Measured values collected from several papers.
A part holds a random share of what one study measured.
UniProt Q96NX5, sequence (whole entry, looked up): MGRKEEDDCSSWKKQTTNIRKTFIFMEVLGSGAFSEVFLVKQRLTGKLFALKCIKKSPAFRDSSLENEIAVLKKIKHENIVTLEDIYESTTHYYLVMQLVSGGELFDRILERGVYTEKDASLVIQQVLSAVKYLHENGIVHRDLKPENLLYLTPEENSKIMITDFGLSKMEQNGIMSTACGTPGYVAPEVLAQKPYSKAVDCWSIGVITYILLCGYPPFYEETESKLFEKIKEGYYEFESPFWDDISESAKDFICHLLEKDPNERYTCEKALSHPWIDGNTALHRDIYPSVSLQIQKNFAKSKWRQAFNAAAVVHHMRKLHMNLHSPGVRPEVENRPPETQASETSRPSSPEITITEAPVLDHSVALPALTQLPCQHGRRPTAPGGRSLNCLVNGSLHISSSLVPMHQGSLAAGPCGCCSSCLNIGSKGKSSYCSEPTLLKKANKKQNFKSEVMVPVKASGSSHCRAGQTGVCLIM
UniProt P53779, sequence (whole entry, looked up): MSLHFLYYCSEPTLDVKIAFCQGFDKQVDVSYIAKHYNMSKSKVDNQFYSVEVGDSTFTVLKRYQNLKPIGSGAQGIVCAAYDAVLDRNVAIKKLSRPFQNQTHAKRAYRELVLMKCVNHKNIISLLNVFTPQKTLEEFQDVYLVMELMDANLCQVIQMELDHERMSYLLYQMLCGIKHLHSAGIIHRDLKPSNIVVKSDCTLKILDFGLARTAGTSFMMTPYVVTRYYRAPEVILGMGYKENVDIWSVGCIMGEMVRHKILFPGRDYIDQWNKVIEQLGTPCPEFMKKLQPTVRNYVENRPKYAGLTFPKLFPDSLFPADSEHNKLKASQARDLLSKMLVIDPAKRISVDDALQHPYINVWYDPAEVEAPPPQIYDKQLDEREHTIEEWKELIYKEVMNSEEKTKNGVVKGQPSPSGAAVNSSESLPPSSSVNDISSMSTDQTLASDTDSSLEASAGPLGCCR
UniProt O75116, sequence (whole entry, looked up): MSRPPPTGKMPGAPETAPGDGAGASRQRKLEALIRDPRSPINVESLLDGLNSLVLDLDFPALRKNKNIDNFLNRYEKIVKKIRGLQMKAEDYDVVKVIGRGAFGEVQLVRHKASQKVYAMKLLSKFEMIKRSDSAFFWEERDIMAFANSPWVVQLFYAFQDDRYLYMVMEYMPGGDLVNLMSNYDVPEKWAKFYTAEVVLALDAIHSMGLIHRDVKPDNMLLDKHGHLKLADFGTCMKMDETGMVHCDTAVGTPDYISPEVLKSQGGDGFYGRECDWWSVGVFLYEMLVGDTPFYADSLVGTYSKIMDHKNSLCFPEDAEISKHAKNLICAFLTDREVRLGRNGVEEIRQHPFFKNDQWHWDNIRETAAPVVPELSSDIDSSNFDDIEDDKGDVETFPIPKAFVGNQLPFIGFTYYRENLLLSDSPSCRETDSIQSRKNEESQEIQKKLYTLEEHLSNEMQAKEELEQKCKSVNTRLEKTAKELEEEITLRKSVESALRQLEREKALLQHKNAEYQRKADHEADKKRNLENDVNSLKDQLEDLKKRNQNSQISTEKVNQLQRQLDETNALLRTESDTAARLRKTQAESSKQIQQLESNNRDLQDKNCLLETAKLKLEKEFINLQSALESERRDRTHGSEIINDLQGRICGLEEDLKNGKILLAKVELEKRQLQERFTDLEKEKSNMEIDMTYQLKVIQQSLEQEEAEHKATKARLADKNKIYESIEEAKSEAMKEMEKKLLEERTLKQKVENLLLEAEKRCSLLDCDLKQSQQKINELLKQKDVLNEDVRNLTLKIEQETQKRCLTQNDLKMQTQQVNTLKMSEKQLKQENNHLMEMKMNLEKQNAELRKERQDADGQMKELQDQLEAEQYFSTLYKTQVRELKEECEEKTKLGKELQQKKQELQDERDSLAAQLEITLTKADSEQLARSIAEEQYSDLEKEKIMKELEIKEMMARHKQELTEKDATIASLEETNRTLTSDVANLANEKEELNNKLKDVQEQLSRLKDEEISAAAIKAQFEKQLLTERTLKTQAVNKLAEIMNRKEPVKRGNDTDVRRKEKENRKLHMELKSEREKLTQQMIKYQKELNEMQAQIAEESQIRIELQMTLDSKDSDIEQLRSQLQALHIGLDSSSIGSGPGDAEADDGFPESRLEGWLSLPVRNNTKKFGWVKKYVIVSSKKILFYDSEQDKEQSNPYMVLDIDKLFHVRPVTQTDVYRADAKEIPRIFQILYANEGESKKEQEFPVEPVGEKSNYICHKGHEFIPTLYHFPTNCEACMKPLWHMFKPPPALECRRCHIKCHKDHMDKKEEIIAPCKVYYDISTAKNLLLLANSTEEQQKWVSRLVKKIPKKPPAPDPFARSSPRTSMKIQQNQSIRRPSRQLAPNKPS
UniProt Q09013, sequence (whole entry, looked up): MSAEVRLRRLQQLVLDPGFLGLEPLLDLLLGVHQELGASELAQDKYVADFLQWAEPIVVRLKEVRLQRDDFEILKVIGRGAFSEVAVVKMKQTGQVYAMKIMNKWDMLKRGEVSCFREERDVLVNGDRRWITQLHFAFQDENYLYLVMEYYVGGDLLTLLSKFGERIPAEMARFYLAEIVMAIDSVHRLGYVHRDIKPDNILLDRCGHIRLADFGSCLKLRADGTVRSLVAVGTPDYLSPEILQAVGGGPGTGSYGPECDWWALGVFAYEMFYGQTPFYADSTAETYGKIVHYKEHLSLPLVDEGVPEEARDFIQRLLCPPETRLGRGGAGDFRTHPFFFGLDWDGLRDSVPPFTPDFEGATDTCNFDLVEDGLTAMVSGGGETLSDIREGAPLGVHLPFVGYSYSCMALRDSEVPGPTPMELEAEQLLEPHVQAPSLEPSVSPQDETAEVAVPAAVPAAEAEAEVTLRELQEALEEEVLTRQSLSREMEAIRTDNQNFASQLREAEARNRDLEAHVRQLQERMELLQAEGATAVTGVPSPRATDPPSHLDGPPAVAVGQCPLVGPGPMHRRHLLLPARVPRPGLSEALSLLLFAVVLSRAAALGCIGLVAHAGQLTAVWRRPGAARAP
UniProt P41743, sequence (whole entry, looked up): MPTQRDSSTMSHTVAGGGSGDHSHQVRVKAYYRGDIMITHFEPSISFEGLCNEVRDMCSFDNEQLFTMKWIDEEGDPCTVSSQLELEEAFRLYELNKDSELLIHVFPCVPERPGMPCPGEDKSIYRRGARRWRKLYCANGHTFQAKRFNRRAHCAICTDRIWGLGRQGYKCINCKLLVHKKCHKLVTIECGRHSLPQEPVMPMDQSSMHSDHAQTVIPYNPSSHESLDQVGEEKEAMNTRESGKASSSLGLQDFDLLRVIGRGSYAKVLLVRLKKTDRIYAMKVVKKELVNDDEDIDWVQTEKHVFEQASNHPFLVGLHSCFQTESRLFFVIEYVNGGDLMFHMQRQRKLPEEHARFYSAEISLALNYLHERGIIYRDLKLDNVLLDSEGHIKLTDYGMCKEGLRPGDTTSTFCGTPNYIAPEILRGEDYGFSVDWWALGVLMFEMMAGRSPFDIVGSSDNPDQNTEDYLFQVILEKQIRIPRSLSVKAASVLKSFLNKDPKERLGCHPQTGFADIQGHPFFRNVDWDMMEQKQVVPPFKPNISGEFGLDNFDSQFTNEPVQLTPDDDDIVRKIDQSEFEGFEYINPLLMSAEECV
UniProt O14965, sequence (whole entry, looked up): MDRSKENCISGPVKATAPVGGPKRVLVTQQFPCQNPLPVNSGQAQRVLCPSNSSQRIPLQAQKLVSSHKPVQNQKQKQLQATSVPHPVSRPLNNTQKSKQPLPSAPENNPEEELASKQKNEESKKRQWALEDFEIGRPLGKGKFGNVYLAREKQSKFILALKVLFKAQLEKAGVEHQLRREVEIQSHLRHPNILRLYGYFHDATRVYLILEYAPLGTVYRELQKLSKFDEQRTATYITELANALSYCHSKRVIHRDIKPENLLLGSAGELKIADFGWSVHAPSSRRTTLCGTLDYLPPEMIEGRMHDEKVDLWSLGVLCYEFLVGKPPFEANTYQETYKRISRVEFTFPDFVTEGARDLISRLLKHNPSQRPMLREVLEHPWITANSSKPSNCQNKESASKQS
UniProt P34947, sequence (whole entry, looked up): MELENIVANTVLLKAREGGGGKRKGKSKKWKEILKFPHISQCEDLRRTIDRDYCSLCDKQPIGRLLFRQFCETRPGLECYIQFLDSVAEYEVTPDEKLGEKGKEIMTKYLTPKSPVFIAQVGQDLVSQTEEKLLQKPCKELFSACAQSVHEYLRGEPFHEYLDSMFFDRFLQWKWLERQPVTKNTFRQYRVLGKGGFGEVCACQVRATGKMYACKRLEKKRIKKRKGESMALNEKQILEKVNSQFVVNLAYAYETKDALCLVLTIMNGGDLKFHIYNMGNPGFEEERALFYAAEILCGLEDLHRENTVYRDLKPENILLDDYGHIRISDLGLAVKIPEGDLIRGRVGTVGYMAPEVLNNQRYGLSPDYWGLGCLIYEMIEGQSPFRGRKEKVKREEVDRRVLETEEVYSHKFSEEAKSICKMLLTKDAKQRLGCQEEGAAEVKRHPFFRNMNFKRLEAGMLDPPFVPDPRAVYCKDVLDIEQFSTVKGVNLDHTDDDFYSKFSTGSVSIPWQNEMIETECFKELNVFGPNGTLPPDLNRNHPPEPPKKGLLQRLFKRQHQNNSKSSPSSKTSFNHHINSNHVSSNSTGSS

Block 1
Target: Diamine acetyltransferase 1 (Homo sapiens, UniProt P21673)
Mode: inhibitor
Tested at: 10 µM
Reference: control
Target sequence (P21673 1-171): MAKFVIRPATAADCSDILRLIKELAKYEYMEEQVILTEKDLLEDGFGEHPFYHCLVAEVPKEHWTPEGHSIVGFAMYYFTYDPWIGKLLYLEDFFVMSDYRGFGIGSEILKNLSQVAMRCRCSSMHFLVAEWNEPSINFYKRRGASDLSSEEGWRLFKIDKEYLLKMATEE
O=C(O)CCc1ccc(O)cc1 has a remaining activity of 92.6%.
C[C@@H]1O[C@@H](O[C@@H]2[C@@H](O)[C@H](OCCc3ccc(O)c(O)c3)O[C@H](CO)[C@H]2OC(=O)/C=C/c2ccc(O)c(O)c2)[C@H](O)[C@H](O)[C@H]1O gave a remaining activity of 102%.
COc1ccc(-c2coc3cc(O)c(OC)c(O)c3c2=O)cc1 gave a remaining activity of 105%.
COc1ccc(-c2coc3cc(O[C@@H]4O[C@H](CO)[C@@H](O)[C@H](O)[C@H]4O)ccc3c2=O)cc1O has a remaining activity of 102%.
For C[C@@H]1CC[C@H]2C(C)(C)[C@H]3C[C@@]12CC[C@@]3(C)O, the remaining activity was 96%.
CC(=O)CCc1ccc(OC(C)=O)cc1 gave a remaining activity of 88%.
With COc1cc(O)c2c(=O)c(OC)c(-c3ccc(OC)c(OC)c3)oc2c1 the remaining activity was 96.4%.
CCCCCCCCCCCCCCCCCCCCCCO has a remaining activity of 93.6%.
For C[C@@H]1C(=O)O[C@H]2C[C@@]34[C@H]5C[C@@H](C(C)(C)C)[C@]36[C@@H](OC(=O)[C@@H]6O)O[C@@]4(C(=O)O5)[C@]21O, the remaining activity was 70.6%.
The remaining activity of CC12CC3OC4O[C@H](CO)[C@@H](O)[C@H](O)[C@H]4OC34CC1C4(COC(=O)c1ccccc1)C(=O)O2 (stereo partly drawn) is reported as 79%.
With CCCCCCCCCC=O the remaining activity was 80.5%.
For C=C1CCC2(C(C)C)CC12 (stereo not drawn), the remaining activity was 101%.

Block 2
Target: Calcium/calmodulin-dependent protein kinase type II subunit alpha (CAMK2A, Homo sapiens, UniProt Q9UQM7)
UniProt Q9UQM7, sequence (whole entry, looked up): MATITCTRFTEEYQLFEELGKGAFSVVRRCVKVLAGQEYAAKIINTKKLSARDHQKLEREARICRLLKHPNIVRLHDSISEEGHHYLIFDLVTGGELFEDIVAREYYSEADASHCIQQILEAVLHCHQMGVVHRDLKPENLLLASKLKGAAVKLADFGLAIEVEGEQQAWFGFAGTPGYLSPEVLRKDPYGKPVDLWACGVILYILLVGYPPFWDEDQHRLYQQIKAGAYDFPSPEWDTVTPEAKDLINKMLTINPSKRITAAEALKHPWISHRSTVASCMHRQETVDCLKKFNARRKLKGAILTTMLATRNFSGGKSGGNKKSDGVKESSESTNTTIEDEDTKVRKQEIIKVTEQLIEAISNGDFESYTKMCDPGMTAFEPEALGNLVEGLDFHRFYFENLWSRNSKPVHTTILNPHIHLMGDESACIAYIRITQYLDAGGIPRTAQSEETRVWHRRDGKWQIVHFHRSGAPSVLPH
Effect on: enzyme activity
Mode: inhibitor
Tested at: 10 µM
With CC(C)(Oc1ccc(C2CC2(Cl)Cl)cc1)C(=O)O (stereo not drawn) the inhibition was -1%.
The inhibition of CCCC[C@H](N)C(=O)O is reported as 20%.
For CC1(C)NC(=O)N(c2ccc([N+](=O)[O-])c(C(F)(F)F)c2)C1=O, the inhibition was -12%.
For O=c1c(O)c(-c2ccc(O)cc2)oc2c(O)c(O)cc(O)c12, the inhibition was -2%.
With C[C@@H]1O[C@@H](O[C@H]2[C@H](OC(=O)[C@]34CCC(C)(C)C[C@H]3C3=CC[C@@H]5[C@@]6(C)C[C@H](O)[C@H](O[C@@H]7O[C@H](CO)[C@@H](O)[C@H](O[C@@H]8O[C@H](CO)[C@@H](O)[C@H](O)[C@H]8O)[C@H]7O)C(CO)(CO)[C@@H]6CC[C@@]5(C)[C@]3(C)C[C@H]4O)OC[C@H](O)[C@@H]2O)[C@H](O)[C@H](O)[C@H]1O[C@@H]1OC[C@@H](O)[C@H](O[C@@H]2OC[C@](O)(CO)[C@H]2O)[C@H]1O the inhibition was 73%.
With C[C@@H]1O[C@@H](O[C@H]2[C@H](O[C@H]3CC[C@@]4(C)[C@@H](CC[C@]5(C)[C@@H]4CC=C4[C@@H]6CC(C)(C)CC[C@]6(C(=O)O[C@@H]6O[C@H](CO[C@@H]7O[C@H](CO)[C@@H](O[C@@H]8O[C@@H](C)[C@H](O)[C@@H](O)[C@H]8O)[C@H](O)[C@H]7O)[C@@H](O)[C@H](O)[C@H]6O)CC[C@]45C)[C@]3(C)CO)OC[C@H](O)[C@@H]2O)[C@H](O)[C@H](O)[C@H]1O the inhibition was 12%.

Block 3
SMILES: CN(C)C(=O)Cn1cc(-c2nc(C3(c4ccc(-c5cnc(N)nc5)cc4)CC3)no2)cn1
Tested at: 1 µM
Calcium/calmodulin-dependent protein kinase type II subunit gamma (CAMK2G, Homo sapiens, UniProt Q13555); cell-free assay, competition with immobilised ligand — remaining binding: 98%.
It gave 96% for remaining binding (Phosphatidylinositol 4-phosphate 5-kinase type-1 gamma (PIP5K1C, Homo sapiens, UniProt O60331); cell-free assay, competition with immobilised ligand).
For ALK tyrosine kinase receptor (ALK, Homo sapiens, UniProt Q9UM73, L1196M); cell-free assay, competition with immobilised ligand: remaining binding read 92%.
Myosin light chain kinase (MYLK3, Homo sapiens, UniProt Q32MK0); cell-free assay, competition with immobilised ligand — remaining binding: 100%.
Casein kinase I isoform gamma-3 (CSNK1G3, Homo sapiens, UniProt Q9Y6M4); cell-free assay, competition with immobilised ligand — remaining binding: 100%.
Transient receptor potential cation channel subfamily M member 6 (TRPM6, Homo sapiens, UniProt Q9BX84); cell-free assay, competition with immobilised ligand — remaining binding: 86%.
It gave 100% for remaining binding (Calcium/calmodulin-dependent protein kinase type 1G (CAMK1G, Homo sapiens, UniProt Q96NX5); cell-free assay, competition with immobilised ligand).
The remaining binding was 76% (Tyrosine-protein kinase ABL1, non-phosphorylated (ABL1, Homo sapiens, UniProt P00519, F317I); binding, competition with immobilised ligand).
eIF-2-alpha kinase GCN2, C-terminal kinase domain (EIF2AK4, Homo sapiens, UniProt Q9P2K8, S808G); cell-free assay, competition with immobilised ligand — remaining binding: 83%.
It gave 90% for remaining binding (Inhibitor of nuclear factor kappa-B kinase subunit beta (IKBKB, Homo sapiens, UniProt O14920); cell-free assay, competition with immobilised ligand).
The remaining binding was 78% (Serine/threonine-protein kinase ULK2 (ULK2, Homo sapiens, UniProt Q8IYT8); cell-free assay, competition with immobilised ligand).
It gave 100% for remaining binding (Protein kinase C iota type (PRKCI, Homo sapiens, UniProt P41743); cell-free assay, competition with immobilised ligand).
For Serine/threonine-protein kinase WNK1 (WNK1, Homo sapiens, UniProt Q9H4A3); cell-free assay, competition with immobilised ligand: remaining binding read 97%.
For Homeodomain-interacting protein kinase 4 (HIPK4, Homo sapiens, UniProt Q8NE63); cell-free assay, competition with immobilised ligand: remaining binding read 100%.
The remaining binding was 100% (Tyrosine-protein kinase ABL1, phosphorylated (ABL1, Homo sapiens, UniProt P00519, H396P); cell-free assay, competition with immobilised ligand).
It gave 82% for remaining binding (Serine/threonine-protein kinase MRCK gamma (CDC42BPG, Homo sapiens, UniProt Q6DT37); competition binding).

Block 4
SMILES: O=C1NC(=O)C(c2c[nH]c3ccccc23)=C1c1c[nH]c2ccccc12
Effect on: enzyme activity
Mode: inhibitor
Tested at: 0.5 µM
Reference: control
It gave 45.4% for remaining activity (STE20-like serine/threonine-protein kinase (SLK, Homo sapiens, UniProt Q9H2G2)).
The remaining activity was 92% (Casein kinase II subunit alpha' (CSNK2A2, Homo sapiens, UniProt P19784)).
The remaining activity was 72.5% (NT-3 growth factor receptor (NTRK3, Homo sapiens, UniProt Q16288)).
For G protein-coupled receptor kinase 5 (GRK5, Homo sapiens, UniProt P34947): remaining activity read 98.1%.
The remaining activity was 96% (Homeodomain-interacting protein kinase 3 (HIPK3, Homo sapiens, UniProt Q9H422)).
Aurora kinase A (AURKA, Homo sapiens, UniProt O14965) — remaining activity: 108%.
It gave 94.4% for remaining activity (Cyclin-dependent kinase 7 (CDK7, Homo sapiens, UniProt P50613)).
Protein-tyrosine kinase 2-beta (PTK2B, Homo sapiens, UniProt Q14289) — remaining activity: 95.6%.
The remaining activity was 81.9% (Cyclin-dependent kinase 2, with cyclin A (CDK2, Homo sapiens, UniProt P24941)).
For Mitogen-activated protein kinase kinase kinase 2 (MAP3K2, Homo sapiens, UniProt Q9Y2U5): remaining activity read 107%.
For Dual specificity tyrosine-phosphorylation-regulated kinase 4 (DYRK4, Homo sapiens, UniProt Q9NR20): remaining activity read 94.3%.
The remaining activity was 84.4% (Serine/threonine-protein kinase BRSK1 (BRSK1, Homo sapiens, UniProt Q8TDC3)).
It gave 87% for remaining activity (Proto-oncogene tyrosine-protein kinase ROS (ROS1, Homo sapiens, UniProt P08922)).
The remaining activity was 80.6% (Proto-oncogene tyrosine-protein kinase receptor Ret (RET, Homo sapiens, UniProt P07949)).
The remaining activity was 106% (Calcium/calmodulin-dependent protein kinase type 1D (CAMK1D, Homo sapiens, UniProt Q8IU85)).
For Myotonin-protein kinase (DMPK, Homo sapiens, UniProt Q09013): remaining activity read 97.3%.
For Serine/threonine-protein kinase D1 (PRKD1, Homo sapiens, UniProt Q15139): remaining activity read 97.6%.
The remaining activity was 89.2% (Rho-associated protein kinase 2 (ROCK2, Homo sapiens, UniProt O75116)).
The remaining activity was 103% (Serine/threonine-protein kinase N2 (PKN2, Homo sapiens, UniProt Q16513)).
The remaining activity was 99.5% (Calcium/calmodulin-dependent protein kinase type 1G (CAMK1G, Homo sapiens, UniProt Q96NX5)).
It gave 90.8% for remaining activity (Mitogen-activated protein kinase kinase kinase 8 (MAP3K8, Homo sapiens, UniProt P41279)).
It gave 110% for remaining activity (Mitogen-activated protein kinase 10 (MAPK10, Homo sapiens, UniProt P53779)).
It gave 97.3% for remaining activity (Serine/threonine-protein kinase Nek9 (NEK9, Homo sapiens, UniProt Q8TD19)).
